# Experimental data from different studies.
# Compare with care: the assays were run in different laboratories. Values joined by “and” are separate records of one study, mostly repeats; a detail may differ. Numbers after ± are the reported error.
Structure (SMILES),cell line,assay,test system,conditions,how to read,endpoint,result
CN1CCN(S(=O)(=O)c2cc([N+](=O)[O-])ccc2N(CCOS(C)(=O)=O)CCOS(C)(=O)=O)CC1,sample E T-ALL PDX cells,cell viability,ex vivo,,,IC50,0.0127 µM
CC(=O)NC1CCSC1=O (stereo not shown),human iPSC-derived cardiomyocytes,"MyBP-C/MYH ratio, plate-normalised SD score",,"concentration not given, primary screen",direction not given,activity score,16
CCC(=O)CCCCC[C@@H]1NC(=O)[C@H]2CCCCN2C(=O)[C@H]([C@@H](C)CC)NC(=O)[C@H](Cc2cn(OC)c3ccccc23)NC1=O,HBL-1,,,"1 µM, 120 h",,viability,0.653%
Cn1nccc1Nc1nccc(-c2ccn([C@H](CO)c3ccc(Cl)c(F)c3)c(=O)c2)n1,HCT116,IncuCyte,,"concentration not given, 8 (unit not given)",,PI-positive cells,2.58 count and 2.92 count and 3.25 count
Oc1ccc(C(c2ccc(O)cc2)(C(F)(F)F)C(F)(F)F)cc1,HepG2 spheroids,Hoechst flow cytometry,,"0.1 µM, 24 h",,S phase cells,7.88 ± 111%
Cc1ncsc1-c1ccc(CNC(=O)[C@@H]2C[C@@H](O)CN2C(=O)[C@@H](NC(=O)C2(F)CC2)C(C)(C)C)c(OCCOc2ccc(CN3CCN(c4cc(-c5ccccc5O)nnc4N)CC3)cc2)c1,H1975 SMARCA4 wild type,ATAC-seq,,"1 µM, 96 h",,lost enhancer peaks,43%
Cc1ccc(S(=O)(=O)Oc2ccc(NC(=O)c3cnccn3)cc2)cc1,P2X7R-transfected MCF7,propidium iodide flow cytometry,,"5 µM, 18 h, with: Bz-ATP",baseline: control,dead cells,19%
C/C=C(/C)C(=O)O[C@H]1C(C)=C2[C@H]([C@@H]1OC(=O)CCCCCCC)[C@@](C)(OC(C)=O)C[C@H](OC(=O)CCC)[C@@]1(O)[C@H]2OC(=O)[C@@]1(C)O,HEK-293T,"RNA-seq GSEA, refers to: Hallmark EMT",,"500 nM, 6 h",direction not given,normalized enrichment score,0.925
CC[C@H](C)[C@H](NC(=O)[C@H](CCCCN)NC(=O)[C@@H](NC(=O)[C@H](C)NC(=O)[C@H](CC(C)C)NC(=O)[C@H](CCCCN)NC(=O)[C@H](Cc1ccccc1)NC(=O)[C@H](CC(C)C)NC(=O)[C@H](Cc1c[nH]cn1)NC(=O)CNC(=O)[C@H](Cc1ccccc1)NC(=O)[C@@H](N)Cc1ccccc1)[C@@H](C)O)C(=O)N[C@H](C(=O)N1CCC[C@H]1C(=O)N[C@@H](CO)C(=O)N[C@@H](CC(C)C)C(=O)N[C@@H](Cc1ccccc1)C(=O)N[C@@H](CCC(N)=O)C(=O)N[C@@H](CS)C(N)=O)[C@@H](C)CC,human red blood cells,,,pH 7.4,baseline: Triton X-100,EC50,12 µM
Cn1cncc1C1=CN(c2ncnc3[nH]cnc23)CCS1,NCI-H322M,,,lung cancer,,CC50,> 200 µM
CC[C@H](C)[C@H](NC(=O)[C@@H](N)CCCNC(=N)N)C(=O)N[C@H](C(=O)N1CCC[C@H]1C(=O)N[C@@H](C)C(N)=O)C(C)C,RAW264.7,cell-based ELISA,,"concentration not given, 60 min, 37 °C",baseline: vehicle,p38 phosphorylation increase,~50%
CC[C@H](C)[C@H](NC(=O)CN)C(=O)NCC(=O)N[C@@H](C)C(=O)N[C@H](C(=O)N[C@@H](CC(C)C)C(=O)N[C@@H](CCCCN)C(=O)N[C@H](C(=O)N[C@@H](CC(C)C)C(=O)N[C@H](C(=O)N[C@H](C(=O)NCC(=O)N[C@@H](CC(C)C)C(=O)N1CCC[C@H]1C(=O)N[C@@H](C)C(=O)N[C@@H](CC(C)C)C(=O)N[C@H](C(=O)N[C@@H](CO)C(=O)N[C@@H](Cc1c[nH]c2ccccc12)C(=O)N[C@H](C(=O)N[C@@H](Cc1c[nH]cn1)C(=O)N[C@@H](Cc1c[nH]cn1)C(=O)N[C@@H](Cc1c[nH]cn1)C(=O)N[C@@H](Cc1c[nH]cn1)C(=O)N[C@@H](CCC(=O)O)C(=O)N[C@@H](CCC(=O)O)C(=O)N[C@@H](CS)C(N)=O)[C@@H](C)CC)[C@@H](C)CC)[C@@H](C)O)[C@@H](C)O)C(C)C)C(C)C,human red blood cells,,,pH 5.5,baseline: Triton X-100,EC50,14 µM
CC(C)N1CCC(NC2CCN(c3cccc(-c4cc5cc(F)ccc5[nH]4)c3)CC2)CC1,U-251,,,,,TGI,3.06 µM
C=CC(=O)N[C@H]1C=C(C)c2c(-c3cnc4ccccc4c3)c3c(N)ncnc3n2C1,NCI-H2073 EGFR ASV knock-in,"cell proliferation, CellTiter-Glo",,,baseline: knock-in over parental NCI-H2073,selectivity ratio,0.547
Nc1ncnc2c1ncn2[C@@H]1O[C@@H]2COP(=O)(O)O[C@H]3[C@@H](O)[C@H](n4cnc5c(=O)[nH]cnc54)O[C@@H]3COP(=O)(O)O[C@H]2[C@H]1O,HFF-1,"RNA sequencing, refers to: Reactome R-HSA-3560801",,downregulated pathway,baseline: Zika virus alone,pathway fold enrichment,14.2
CC[C@H](C)[C@H](NC(=O)[C@H](Cc1c[nH]c2ccccc12)NC(=O)[C@H](CO)NC(=O)[C@H](C)NC(=O)[C@H](CC(C)C)NC(=O)[C@H](C)NC(=O)[C@H](CC(C)C)NC(=O)[C@H](C)NC(=O)[C@H](CCC(=O)O)NC(=O)[C@H](C)NC(=O)[C@H](CCC(=O)O)NC(=O)[C@H](C)NC(=O)[C@H](CCC(=O)O)NC(=O)[C@H](C)NC(=O)[C@H](CC(C)C)NC(=O)[C@H](C)NC(=O)[C@H](CC(C)C)NC(=O)[C@H](Cc1c[nH]c2ccccc12)NC(=O)[C@H](Cc1c[nH]c2ccccc12)NC(=O)CN)C(=O)N[C@@H](CCCCN)C(=O)N[C@@H](CCCNC(=N)N)C(=O)N[C@@H](CCCCN)C(=O)N[C@@H](CCCNC(=N)N)C(=O)N[C@@H](CCC(N)=O)C(=O)N[C@@H](CCC(N)=O)C(=O)N[C@@H](CS)C(N)=O,human red blood cells,,,pH 7.4,baseline: Triton X-100,EC50,> 100 µM
C[C@]12CC[C@H](O)C[C@H]1CC[C@@H]1[C@@H]2CC[C@]2(C)[C@@H](c3ccc(=O)oc3)CC[C@]12O,MCF7,"RT-qPCR, refers to: SIAH2",,"20 nM, 48 h, without estradiol, unit not given",baseline: untreated,mRNA level,0.497 and 0.606 and 0.45
COC(=O)/C(C)=C\C[C@@]12OC(C)(C)[C@@H]3C[C@@H](C=C4C(=O)c5c(O)c6c(c(CC=C(C)C)c5O[C@]431)O[C@](C)(CCC=C(C)C)C=C6)C2=O,human iPSC-derived cardiomyocytes,"MyBP-C/MYH ratio, plate-normalised SD score",,"concentration not given, primary screen",direction not given,activity score,8.8
CC(C)=CCC/C(C)=C\CCn1cc(C2CC2(P(=O)([O-])[O-])P(=O)([O-])[O-])nn1.[Na+].[Na+].[Na+].[Na+] (stereo not shown),MM.1S,refers to: unmodified Rap1a,,"concentration not given, 48 h",,inhibition of geranylgeranylation,inactive
COc1cc(CCC[P+](c2ccccc2)(c2ccccc2)c2ccccc2)c(OC)c2c1OCO2.[I-],HCC 2998,SRB,,,,TGI,-4.88 log M
O=c1c(O)c(-c2ccc(O)c(O)c2)oc2cc(O)cc(O)c12,induced SH-SY5Y Aβ-GFP cells,,,5 µM,,neurite branch number,1.8 to 2.1
O=S(=O)(c1ccc(O)cc1)c1ccc(O)cc1,HepG2 spheroids,Hoechst flow cytometry,,"10 µM, 24 h",,S phase cells,8.46 ± 1.89%
CN1C(=O)[C@@]23C[C@]4([C@]56C[C@@]78SS[C@@](CO)(C(=O)N7[C@H]5Nc5ccccc56)N(C)C8=O)c5ccccc5N[C@@H]4N2C(=O)[C@]1(CO)SS3,HBL-1,,,"0.5 µM, 120 h",,viability,0.383%
CC1=C(O)C(=O)C=C2C1=CC=C1[C@@]2(C)CC[C@@]2(C)[C@@H]3C[C@](C)(C(=O)O)CC[C@]3(C)CC[C@]12C,HepG2,"cell viability, CCK-8",,4 µM,higher = more viable cells,optical density,0.301 a.u. and 0.338 a.u. and 0.472 a.u. and 0.323 a.u. and 0.261 a.u.
CN1CCN(C2(CNC3CCN(c4cccc(-c5cc6cc(F)ccc6[nH]5)c4)CC3)CCC2)CC1,HCC 2998,,,,,CC50,5.69 µM
O=P1(NCCCl)OCCCN1CCCl (stereo not shown),human iPSC-derived cardiomyocytes,"MyBP-C/MYH ratio, plate-normalised SD score",,"concentration not given, primary screen",direction not given,activity score,3.2
CC(C)C[C@H](NC(=O)[C@H](C)NC(=O)[C@H](Cc1c[nH]cn1)NC(=O)[C@H](C)NC(=O)[C@H](CC(C)C)NC(=O)[C@H](Cc1c[nH]cn1)NC(=O)[C@H](CC(C)C)NC(=O)[C@H](Cc1c[nH]c2ccccc12)NC(=O)[C@H](CC(C)C)NC(=O)[C@H](CC(C)C)NC(=O)[C@H](C)NC(=O)[C@H](CC(C)C)NC(=O)[C@H](CC(C)C)NC(=O)[C@H](Cc1c[nH]cn1)NC(=O)[C@H](CC(C)C)NC(=O)[C@H](C)NC(=O)[C@H](Cc1c[nH]cn1)NC(=O)[C@H](C)NC(=O)[C@H](CC(C)C)NC(=O)[C@H](CCCCN)NC(=O)[C@@H](N)CCCCN)C(=O)N[C@@H](CCCCN)C(=O)N[C@@H](CCCCN)C(=O)N[C@@H](C)C(=O)N[C@@H](CS)C(N)=O,human red blood cells,,,pH 5.5,baseline: Triton X-100,EC50,20 µM
CN[C@@H]1C[C@H]2O[C@@](C)([C@@H]1OC)n1c3ccccc3c3c4c(c5c6ccccc6n2c5c31)C(=O)NC4,iCell Cardiomyocytes (hiPSC-derived),xCELLigence Cardio impedance,,"concentration not given, 2 h",baseline: control,beat rate,0%
CO[C@H]1[C@H](O)[C@H](O[C@H]2CC[C@@]3(C=O)[C@H](CC[C@@H]4[C@@H]3CC[C@]3(C)[C@@H](C5=CC(=O)OC5)CC[C@]43O)C2)O[C@@H](C)[C@@H]1O,human iPSC-derived cardiomyocytes,"MyBP-C/MYH ratio, plate-normalised SD score",,"concentration not given, primary screen",direction not given,activity score,7.1
Cc1cc(C(C)(C)c2ccc(O)c(C)c2)ccc1O,HepG2 spheroids,Hoechst flow cytometry,,"1 µM, 96 h",,S phase cells,9.02 ± 1.84%
Cc1cc(NS(=O)(=O)c2ccc(NC(=O)/C(C#N)=C/c3ccc(N4CCCCC4)cc3)cc2)no1,HCT-116,"ELISA, refers to: caspase-3",,"IC50, 48 h",baseline: untreated,protein level,4.13 fold
CCN(CC)c1ccc(C=NNC(=O)CSc2nc3ccccc3c(=O)n2Cc2ccc(S(N)(=O)=O)cc2)c(O)c1,U-251,NCI five-dose screen,,,,CC50,> 100 µM
O=C1N(Cc2ccccc2Cl)c2ccccc2C12NN=C(c1ccccc1)S2 (stereo not shown),MDA-MB-468,"gene expression array, refers to: FAM125A mRNA",,"10 µM, 12 h","baseline: untreated, up",fold change,1.59
COc1c(CCC[P+](c2ccccc2)(c2ccccc2)c2ccccc2)cc2c(c1OC)OCO2.[I-],UO-31,SRB,,,,LC50,> -4 log M
Nc1ncc(-c2nc(N3CCOCC3)nc(N3CCOCC3)n2)c(C(F)F)n1,SW48,,,72 h,,GI50,0.077 µM
COc1c(C)c2c(c(O)c1C/C=C(\C)CCC(=O)O)C(=O)OC2,blood cancer cell lines,cell proliferation,,average over lines,,IC50,0.339 µM
COc1ccc2c(c1)[nH]c1c(C)nccc12,DU-145,"bisulfite pyrosequencing, refers to: RASSF1A promoter CpG site 7",,"10 µM, 16 h",,DNA methylation,86.8%

# Repeated from above:
Structure (SMILES),cell line,assay,test system,conditions,how to read,endpoint,result
CC(=O)NC1CCSC1=O (stereo not shown),human iPSC-derived cardiomyocytes,"MyBP-C/MYH ratio, plate-normalised SD score",,"concentration not given, primary screen",direction not given,activity score,16
CCC(=O)CCCCC[C@@H]1NC(=O)[C@H]2CCCCN2C(=O)[C@H]([C@@H](C)CC)NC(=O)[C@H](Cc2cn(OC)c3ccccc23)NC1=O,HBL-1,,,"1 µM, 120 h",,viability,0.653%
Cn1nccc1Nc1nccc(-c2ccn([C@H](CO)c3ccc(Cl)c(F)c3)c(=O)c2)n1,HCT116,IncuCyte,,"concentration not given, 8 (unit not given)",,PI-positive cells,2.58 count and 2.92 count and 3.25 count
Oc1ccc(C(c2ccc(O)cc2)(C(F)(F)F)C(F)(F)F)cc1,HepG2 spheroids,Hoechst flow cytometry,,"0.1 µM, 24 h",,S phase cells,7.88 ± 111%
Cc1ncsc1-c1ccc(CNC(=O)[C@@H]2C[C@@H](O)CN2C(=O)[C@@H](NC(=O)C2(F)CC2)C(C)(C)C)c(OCCOc2ccc(CN3CCN(c4cc(-c5ccccc5O)nnc4N)CC3)cc2)c1,H1975 SMARCA4 wild type,ATAC-seq,,"1 µM, 96 h",,lost enhancer peaks,43%
